Measurements of several laboratories.
Compare with care: the assays were run in different laboratories. Numbers after ± are the reported error.
Target: Acetylcholinesterase (ache, Electrophorus electricus, UniProt O42275)
Sequence of UniProt O42275 (whole entry, looked up): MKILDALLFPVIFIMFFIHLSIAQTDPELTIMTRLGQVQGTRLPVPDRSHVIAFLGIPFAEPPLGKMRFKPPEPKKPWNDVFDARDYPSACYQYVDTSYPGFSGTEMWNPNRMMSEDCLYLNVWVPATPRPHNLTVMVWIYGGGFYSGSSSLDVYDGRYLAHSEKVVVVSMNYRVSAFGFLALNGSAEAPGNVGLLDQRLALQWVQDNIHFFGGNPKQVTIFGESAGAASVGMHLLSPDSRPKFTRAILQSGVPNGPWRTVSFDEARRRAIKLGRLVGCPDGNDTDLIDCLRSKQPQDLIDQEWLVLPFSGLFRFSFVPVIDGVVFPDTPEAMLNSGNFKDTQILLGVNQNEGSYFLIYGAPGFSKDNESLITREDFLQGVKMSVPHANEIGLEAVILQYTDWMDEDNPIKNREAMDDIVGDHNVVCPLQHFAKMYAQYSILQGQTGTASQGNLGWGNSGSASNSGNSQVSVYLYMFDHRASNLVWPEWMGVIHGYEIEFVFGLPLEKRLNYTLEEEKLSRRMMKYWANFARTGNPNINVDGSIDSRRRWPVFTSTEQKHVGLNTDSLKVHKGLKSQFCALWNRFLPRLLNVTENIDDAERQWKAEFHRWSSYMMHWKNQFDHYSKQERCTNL
Read-out: enzyme activity
Mode: inhibitor

| SMILES | technique | pH | IC50 [nM] |
| --- | --- | --- | --- |
| O=C(O)C(/C=C/c1ccc(Cl)cc1)=N\Nc1nc(-c2ccc(F)cc2)cs1 | Ellman |  | 954 |
| O=S(=O)(N/N=C/c1ccc(OS(=O)(=O)c2cc(Cl)ccc2Cl)cc1)c1cc(Cl)ccc1Cl | Ellman |  | 10.7 |
| Cc1ccc(-c2csc(NN=C(C=Cc3ccc(Cl)cc3)C(=O)O)n2)cc1 | Ellman |  | 875 |
| O=S(=O)(N/N=C/c1ccc(OS(=O)(=O)c2ccccc2)cc1)c1cc(Cl)ccc1Cl | Ellman |  | 5.33 |
| CCCCc1nc2ccc(/N=N/c3ccc(Cl)cc3)cc2c(-c2ccccc2)c1I | Ellman | pH 7.4 | 6170 |
| CCN(C)C(=O)Oc1ccc(/C=C/C(=O)N2CCc3ccccc3C2)cc1OC | Ellman |  | 12300 |
| CCCCNC(=O)c1ccc2nc(CC)c(N(C)Cc3ccc(OC)cc3)n2c1 | Ellman |  | 3360 |
| O=C(O)C(/C=C/c1c(Cl)cccc1Cl)=N\Nc1nc(-c2ccc([N+](=O)[O-])cc2)cs1 | Ellman |  | 865 |
| C=CCNc1nc2cc(-c3ccc(OCCCNC)nc3)sc2c(=O)n1C |  |  | 200 ± 60 |
| O=S(=O)(N/N=C/c1ccc(OS(=O)(=O)c2cc(Cl)ccc2Cl)cc1)c1ccc(Cl)cc1 | Ellman |  | 183 |
| COc1cc2c(cc1OC)CN(S(=O)(=O)CCc1cn(-c3cc(C)cc(C)c3)nn1)CC2 | Ellman |  | 42 |
| CNC(=O)c1cccc(-c2ccc3ncc(-c4cccc(C(=O)NCCN(C)C)c4)n3n2)c1 | Ellman |  | 15400 |
| Cc1cc(C)cc(-n2cc(CCS(=O)(=O)N3CCc4ccccc4C3)nn2)c1 | Ellman |  | 20 |
| CCc1nc2ccc(C(=O)NCCN3CCOCC3)cn2c1N(C)C(=O)C1CCCCC1 | Ellman |  | 7340 |
| O=S(=O)(N/N=C/c1ccc(OS(=O)(=O)c2ccc(Cl)cc2)cc1)c1ccc(Cl)cc1 | Ellman |  | 84.4 |

Repeated from above:
| SMILES | technique | pH | IC50 [nM] |
| --- | --- | --- | --- |
| Cc1cc(C)cc(-n2cc(CCS(=O)(=O)N3CCc4ccccc4C3)nn2)c1 | Ellman |  | 20 |
| CCc1nc2ccc(C(=O)NCCN3CCOCC3)cn2c1N(C)C(=O)C1CCCCC1 | Ellman |  | 7340 |
